Measurements gathered from unrelated publications.
A part holds a random share of what one study measured.

Sample 1
Target: Interferon regulatory factor 3, full length, phosphomimetic (IRF3, Homo sapiens, UniProt Q14653, residues 1-427, S386D/S396D/S398D/S402D/T404D/S405D)
Technique: protein-binding microarray
Molecule type: double-stranded DNA, one strand shown
Matrix: in vitro
Tested at: 2540 nM top
Setting: 60-bp whole probe
Together with: salmon DNA 0.4 mg/ml
Relative to: random background probes
Reading: higher = stronger binding
Shared flanks, not repeated: GCCTAGCAC … GTCTTGATTCGCTTGACGCTGCTG
Construct (chain): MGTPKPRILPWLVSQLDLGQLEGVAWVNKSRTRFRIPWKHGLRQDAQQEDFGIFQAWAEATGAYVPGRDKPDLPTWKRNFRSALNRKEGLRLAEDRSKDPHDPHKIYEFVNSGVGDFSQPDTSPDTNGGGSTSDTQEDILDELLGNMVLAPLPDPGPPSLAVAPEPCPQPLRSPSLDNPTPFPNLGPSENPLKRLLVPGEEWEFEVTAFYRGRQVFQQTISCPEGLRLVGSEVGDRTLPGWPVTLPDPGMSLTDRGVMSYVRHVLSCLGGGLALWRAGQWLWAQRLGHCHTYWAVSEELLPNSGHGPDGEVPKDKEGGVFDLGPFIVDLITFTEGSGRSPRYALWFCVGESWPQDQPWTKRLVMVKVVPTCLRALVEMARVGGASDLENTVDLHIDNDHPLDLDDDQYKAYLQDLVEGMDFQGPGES
Sequence | fitted relative affinity
GACGGTATCGGTCTCGGGATGTGCTAG | 4.49 z-score
TCAACAGTTTTATTTTAGACTGTGCTA | 1.98 z-score
GACGGTATCCTTAGCCTGACGTGCTAG | 2.24 z-score
GACGGACAGCTACTGCTGACGTGCTAG | -0.815 z-score
GACGGACTGGACACTTGGGACGTGCTA | -0.643 z-score
TTAGATATCGGGAGTGGATTAGTGCTA | -0.362 z-score
TTAGGTCTCCTTCTCCATTAGTGCTAG | 4.39 z-score
TCAATTGTCTCTGTCCCACTGTGCTAG | 0.169 z-score
TTAGATTTCGGGTAGCGATTAGTGCTA | 0.682 z-score
TCAAACATCATTGTCATACTGTGCTAG | -0.0622 z-score
TAGATCGTCCCTTTGAGAGGGTGCTAG | 0.386 z-score
TCAACTTTCCACTTGTCACTGTGCTAG | 2.62 z-score
TTAGGTATCGGACTGGGTTCGTGCTAG | 0.928 z-score
ATCTTCATGAAATTTTAATAAGTGCTA | 0.26 z-score
CTAGGTCTCCTTTTCCTTTAGTGCTAG | 5.08 z-score
GACGGTTTGGACTTTCGGGACGTGCTA | 0.42 z-score
GACGCACTGGGACTGGGGACGTGCTAG | -0.696 z-score
TCATGTATGGGCATTTTTACTGTGCTA | -0.514 z-score
TTTAAAGAACCCACTATCTTGTGCTAG | 0.0501 z-score

Sample 2
Target: PABPC1L2, full length, GST fusion (mouse, UniProt A0ABA7IW68)
Technique: RNAcompete
Molecule type: RNA
Matrix: in vitro
Tested at: 20 nM
Setting: 7-mer, probes averaged, single round
Relative to: mean of 7-mers
Reading: higher = stronger binding
Construct (chain): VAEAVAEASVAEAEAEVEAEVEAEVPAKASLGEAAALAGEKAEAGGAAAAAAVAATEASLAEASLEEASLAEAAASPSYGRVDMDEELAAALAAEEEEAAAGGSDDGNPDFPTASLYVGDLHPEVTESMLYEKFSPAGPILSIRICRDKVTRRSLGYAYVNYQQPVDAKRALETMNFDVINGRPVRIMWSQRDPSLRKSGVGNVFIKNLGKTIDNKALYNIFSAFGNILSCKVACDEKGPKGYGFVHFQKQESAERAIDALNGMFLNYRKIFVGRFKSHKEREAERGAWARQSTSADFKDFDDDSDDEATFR
Sequence | 7-mer Z-score
UGCGCUC | -0.229
UGAUUGG | -0.0518
GUGUUCC | -0.327
GAUAUUG | -0.273
GUAGCGG | -0.101
ACGCGCC | -0.249
CCCGCUC | -0.441
GUUCUAG | -0.195
AUUGUAU | -0.104
AAACGUU | 0.171
AAAGGAG | 0.936
CUCCGAA | -0.208
UUUUAUC | -0.244
AAUCUGG | 0.273
AUCAGGC | 0.0714
AAGCUAC | 0.115
UAGUGAG | -0.26

Sample 3
Target: Histone acetyltransferase KAT6A, both winged helices, GST fusion (KAT6A, Homo sapiens, UniProt Q92794, residues 1-181)
Technique: protein binding microarray
Molecule type: double-stranded DNA, one strand shown
Matrix: in vitro
Tested at: not given
Setting: 8-mer, flanks averaged, mean of 2 arrays, mostly near background
Relative to: not given
Reading: higher = stronger binding
Residues (chain): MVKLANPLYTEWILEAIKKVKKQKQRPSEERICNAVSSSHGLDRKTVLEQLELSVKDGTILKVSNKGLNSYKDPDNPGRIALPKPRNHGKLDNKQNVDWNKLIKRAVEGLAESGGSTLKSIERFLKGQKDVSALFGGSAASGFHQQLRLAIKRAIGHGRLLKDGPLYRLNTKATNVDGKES
Sequence | E-score
CATGTGGA | -0.0943
GACAAAGA | -0.0634
CAGGTCCG | 0.0189
CACTTGAG | -0.187
CAACCGAG | -0.0175
ATACGAGC | -0.024
TAATGTAA | -0.0214
GACGGGGA | 0.212
AATCCTCG | -0.249
ACGTAAGA | -0.214
ATTAAACC | 0.0688
ACTGCTAA | -0.238
GTGGCCTA | -0.0973
ATTTGCGA | -0.0544
GAAAAATA | -0.0668
AACCACGG | 0.135
ACCCAATA | -0.103
CTAAGAAC | -0.0782
AGAATATA | -0.00901
AAAAGGTA | -0.187

Sample 4
Target: Sal-like protein 4, full length isoform B (SALL4, Homo sapiens, UniProt Q9UJQ4-2, residues 1-616)
Technique: universal PBM
Molecule type: double-stranded DNA, one strand shown
Matrix: in vitro
Tested at: not given
Setting: 8-mer, flanks averaged, mean of replicates
Reading: higher = stronger binding
Sequence | E-score
AGCGGGCG | -0.359
ACAGGGGC | -0.257
AGCTGTCC | -0.183
AGATTCAG | -0.019
CGGACCCC | -0.444
AGGTGGAT | -0.0937
GCGACTTA | -0.0546
AGACATTA | 0.158
CAAGAACG | -0.0331
CGATACCC | -0.151
AGTCAATG | 0.0649
ACTAGTGA | 0.0935
CAGGGAAA | -0.0734
CCACATGA | 0.0275
CGTGTTCA | 0.017
CACTATCG | -0.0381
GCCGATGA | -0.23
GCGGGTTA | -0.17
CCCTATCA | -0.0292
GCCCGTCA | -0.236
AAGCGAAA | 0.0848
GTAGACAC | -0.0996
ACGCATGG | -0.137
CGCGGAAC | -0.252

Sample 5
Target: Ras GTPase-activating protein-binding protein 1, full length (G3BP1, Homo sapiens, UniProt Q13283)
Sequence of UniProt Q13283 (whole entry, looked up): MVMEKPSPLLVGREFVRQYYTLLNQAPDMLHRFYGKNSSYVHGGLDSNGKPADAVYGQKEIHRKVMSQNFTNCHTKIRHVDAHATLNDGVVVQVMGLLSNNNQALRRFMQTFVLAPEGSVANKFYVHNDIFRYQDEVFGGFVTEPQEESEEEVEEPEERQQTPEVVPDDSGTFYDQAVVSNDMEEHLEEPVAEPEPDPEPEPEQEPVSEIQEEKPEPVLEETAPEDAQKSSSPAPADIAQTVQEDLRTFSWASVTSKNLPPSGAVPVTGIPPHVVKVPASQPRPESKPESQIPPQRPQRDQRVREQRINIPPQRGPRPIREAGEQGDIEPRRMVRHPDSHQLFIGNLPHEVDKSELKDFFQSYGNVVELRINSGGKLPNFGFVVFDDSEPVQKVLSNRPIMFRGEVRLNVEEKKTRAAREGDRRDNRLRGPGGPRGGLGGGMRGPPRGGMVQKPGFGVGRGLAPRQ
Technique: RNA Bind-n-Seq
Molecule type: RNA
Matrix: in vitro
Tested at: 200 nM
Setting: whole 134-nt RNA, ends assumed
Together with: 150 mM LiCl
Relative to: input library
Reading: higher = stronger binding
All molecules: 7-deaza-guanosine replaces G
Shared flanks, not repeated: GGGAGUUCUACAGUCCGACGAUC … UGGAAUUCUCGGGUGUCAAGG
Sequence | log2 enrichment
AGUCCUGUGCUACACAUCGUAUGUACCGAAUCGGGUUUUGGGGUUUUGGGGUUUUGGAAAGUAUUAUGUUACGCCGUUCGGAUCUGCACU | -0.248
UAACUUUAGAGGAGGAUCUGAUGGAUAUGGCAGUGGACGUGGAUUUGGGGAUGGCUAUAAUGGGUAUGGAGGAGGACCUGGAGGUAGCAA | -0.371
CUGUGCUACACAUCGUAUGUACCGAAUCGGGGUUUUUUUGGGGUUUUUUUGGGUUUUUUUGGAAAGUAUUAUGUUACGCCGUUCGGAUCU | 1.64
CUGUGCUACACAUCGUAUGUACCGAAUCGGGGAAAAAAGGGGAAAAAAGGGGAAAAAAGGGGAAAGUAUUAUGUUACGCCGUUCGGAUCU | 0.749
CAAGUCCUGUGCUACACAUCGUAUGUACCGAAUCGGAAAAAAAGGAGGUUUUUGGAAAGUAUUAUGUUACGCCGUUCGGAUCUGCACUUC | -0.926
ACCAUGCAGGUGGGCAUCUUUGGGAAGUGGGGCAAGGGGGGGAUAGGGAGGGGGGUAACAAAAUGGGAACAGGUGGUCCCAGGUCGUUUC | -0.00402
CUCAAGUCCUGUGCUACACAUCGUAUGUACCGAAUCGGGAAAGGGAGGGUGGGAAAGUAUUAUGUUACGCCGUUCGGAUCUGCACUUCCA | 0.0257
UGGCCGGUGGCCGUGAGAACACGCUGUGUGGCUGAAAAGUGAAGGCAAGAGCUGAUUUGGCCUCUGUGCUCCCCUCCGCAAGGGGAUCGU | -0.313
CUGUGCUACACAUCGUAUGUACCGAAUCGGGUUUUUUUGGGGUUUUUUUGGUUUUUUUGGGAAAGUAUUAUGUUACGCCGUUCGGAUCUG | 1.22
CAAGUCCUGUGCUACACAUCGUAUGUACCGAAUCGGUUUGGGUUUGGGUUUGGGGAAAGUAUUAUGUUACGCCGUUCGGAUCUGCACUUC | -0.714
CCUCAAGUCCUGUGCUACACAUCGUAUGUACCGAAUCGGUGGAAAAAGGUGGAAAGUAUUAUGUUACGCCGUUCGGAUCUGCACUUCCAG | 0.409

Sample 6
Target: RNA binding protein fox-1 homolog 2, RRM domain, GST-SBP tag (RBFOX2, Homo sapiens, UniProt O43251-10, residues 100-194)
Technique: RNA Bind-n-Seq
Molecule type: RNA
Matrix: in vitro
Tested at: 365 nM
Setting: natural RNA segment, single round, ends assumed
Relative to: no-protein control
Reading: higher = stronger binding
Shared flanks, not repeated: GGGAGUUCUACAGUCCGACGAUC … UGGAAUUCUCGGGUGCCAA
Construct (chain): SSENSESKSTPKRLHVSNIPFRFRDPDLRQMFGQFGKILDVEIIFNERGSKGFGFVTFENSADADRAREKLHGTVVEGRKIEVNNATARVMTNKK
Sequence | RBNS enrichment (R)
GUGUUGCCACCACUUCUAAAAAUUUAGCAAUAUUAGAAUAGGAUACUAGUGAAGUAAGAAAUUUUGCUUGUUGUUUUGCAAACCAAAUAGUUUCCUCAAACACAAAUCAG | 3
AUGGGACCCUCUGGAGUCCAGCCAUCCCAGGCUGUCUGCUUUCCAGGGGUUGUAUCUUCCUUCUUACCUGUUCAUCAACCAGCCCUCUCAUUGCUGCUGCAAGUCUGGCU | 0.245
CUGCUUUUGCUUUGGGUACAGCUAUUUAGUUAGUUGUGUUACAAAGAAUUAUUUUCUGAGAGAAUCUUAAACUUAGAAUAUUCAGAUGCAGUAGAUACUGGCGUGUGGAG | 0.476
CUUCAGGCUCCACAGGCGUCAUGUUGGACUGAGACCUAACUCACUGGACUCAGAGGAGGAAUCGUGGAAAACAAGAGCAAAACUACCCCACACCCCUAUUUCAUGUCUGA | 0.36
GUAGUCUUAAAACUCUAAAACAGUUGUACUGCUUCCAAGCAGCAGUAUUUAUAGUAACGUAAGCUAUUAAUGCUAACUCUUGCAUGUCAAGAAACAUUAGUCUUAGGAAU | 0.399
GGACAGCAAGCAAACCAUUUCUCUCCGUCUGUUCUGUUUUUCUCCUAGUCCCUCUCCUGCCACCUCUCCAAGACUUCCGUGGGACACCCACUUCCCUCUGUCCUAGUUCU | 0.878
UGCUCCUUACCAAAAAUCAGUCUUCUAGCAAAUAAAAAUAACUUAGAGCAUUAUUUAUUUAAAGAAUUUAUGUUUUCUAUAAAACCUUAUAACCAAGAACCUUCAGGAUG | 0.766
GCCCUGUGAGAGGAAGAUGGGGCCACCCCAGGGCUCCCAAUGCACUCGGAAGUCAGCAGUACCAGGAGCUCAGGCUGAGAAGGACAGCAGUGCGGCUUCAGGACGAAGCU | 0.525
GCUUAUGUAGCACUUCUGGACCCUGCUAUAAGCUGAGAAGUCUAGAGGUUGGUUUGGGGACCAACCAAGCUACCAACCUUAAGGGUAACUUGGUCUCGAUUUAGGAGCCU | 0.334
UCAGCCCUGUGCCCUGAUGAUGUCCCUGGCCUGUGAAUUCUGUCCUUGACUGACCCGUGCUCCUGGAGGAUCCCCAGUUGUGUCAAUGAUAGAUAGUUUAGUCAACAUCC | 0.526
GCUUCUUCCCCCCAACCCCUGGCUAUUUUAUAUUAAUGGGGAGAGGGGAUUUUUAAAUGUCAUAAAUUUGAAGAGUGGUGGGUUGCAUUUUCUUCAUGGGUUUAUGUUUU | 0.75
CCACUUUAAAGGACAAAAGCCAGAGCUCAGCUUUAUCCCUCUCCCAGUGCUGGGAGCCAAAAAACUGUUGACGGUUUUUUGUGCAGCUCAAGAAAACUUUGAAAAGAACA | 0.468

Repeated from above (sample 1):
Sequence | fitted relative affinity
GACGGACTGGACACTTGGGACGTGCTA | -0.643 z-score
CTAGGTCTCCTTTTCCTTTAGTGCTAG | 5.08 z-score
GACGGTATCCTTAGCCTGACGTGCTAG | 2.24 z-score
GACGGTTTGGACTTTCGGGACGTGCTA | 0.42 z-score
TCAACTTTCCACTTGTCACTGTGCTAG | 2.62 z-score
TTAGGTATCGGACTGGGTTCGTGCTAG | 0.928 z-score
TTAGATTTCGGGTAGCGATTAGTGCTA | 0.682 z-score
TCATGTATGGGCATTTTTACTGTGCTA | -0.514 z-score
GACGGACAGCTACTGCTGACGTGCTAG | -0.815 z-score
ATCTTCATGAAATTTTAATAAGTGCTA | 0.26 z-score
TCAAACATCATTGTCATACTGTGCTAG | -0.0622 z-score
GACGCACTGGGACTGGGGACGTGCTAG | -0.696 z-score
TTAGGTCTCCTTCTCCATTAGTGCTAG | 4.39 z-score
TCAATTGTCTCTGTCCCACTGTGCTAG | 0.169 z-score
TAGATCGTCCCTTTGAGAGGGTGCTAG | 0.386 z-score
TCAACAGTTTTATTTTAGACTGTGCTA | 1.98 z-score
TTTAAAGAACCCACTATCTTGTGCTAG | 0.0501 z-score
